Experimental data pooled from the literature.
Each numbered part is a random draw from the data of one study; scales do not carry over between parts. Several values in a cell are separate wells, animals, samples, runs or records.

Block 1
Target: D(1B) dopamine receptor (DRD5, Homo sapiens, UniProt P21918)
Sequence of UniProt P21918 (whole entry, looked up): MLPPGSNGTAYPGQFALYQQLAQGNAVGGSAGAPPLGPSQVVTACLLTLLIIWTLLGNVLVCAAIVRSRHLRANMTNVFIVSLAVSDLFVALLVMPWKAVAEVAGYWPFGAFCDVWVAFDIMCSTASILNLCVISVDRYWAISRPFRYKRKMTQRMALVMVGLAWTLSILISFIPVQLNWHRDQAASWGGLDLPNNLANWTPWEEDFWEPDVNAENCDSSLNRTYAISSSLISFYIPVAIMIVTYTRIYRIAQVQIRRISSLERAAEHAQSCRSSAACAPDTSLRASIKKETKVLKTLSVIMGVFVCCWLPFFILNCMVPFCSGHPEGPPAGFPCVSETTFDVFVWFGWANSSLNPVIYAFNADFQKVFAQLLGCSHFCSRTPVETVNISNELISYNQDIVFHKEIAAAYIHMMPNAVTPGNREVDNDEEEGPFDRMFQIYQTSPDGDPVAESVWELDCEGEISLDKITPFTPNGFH
Read-out: binding
Technique: radioligand binding
Tested at: 10 µM
SMILES	inhibition [%]
COc1nc2ccc([C@@](O)(c3ccccc3)C3CCN(C(C)=O)CC3)cc2c(Cl)c1Cc1ccc(-n2cccn2)cc1	33.9
O=C(Nc1cnc(Oc2ccc(F)cc2)nc1)N1CCc2ncccc2[C@@H]1c1ccc(F)cc1	10.1
O=C(NC[C@@H]1[C@H]2CN(C(=O)OCc3cc(C(F)(F)F)cc(C(F)(F)F)c3)C[C@@H]12)c1ccc2[nH]nnc2c1	21.6
CCCOc1ccc([C@H]2[C@H](C(=O)O)[C@@H](c3ccc4c(c3)OCO4)CN2CC(=O)Nc2c(CC)cccc2CC)cc1	11
C[C@@]1(Cc2ccc(C#N)cc2)C(=O)N(c2cc(Cl)cc(Cl)c2)c2ncc(C(=O)NC3(c4nc(C5CCC5)no4)CC3)n21	7.21
O=C1CCc2cc(Nc3cc(OC4CCOCC4)c([N+](=O)[O-])cc3Cl)ccc2N1	13
CC(=O)Nc1nc(CN2CCC[C@H](Cc3cc(C)nc(C)c3)C2)cs1	-30.4
CC(=O)c1c(NS(C)(=O)=O)c2cc(-c3ccc(Cl)cc3)c(-c3ccc(Cl)cc3Cl)nc2n(C)c1=O	44.5
CC1=C(C#N)C(c2ccc3c(c2)c(NC(=O)c2ccccc2C)nn3C)C(C#N)=C(C)N1	14.6
O=C1c2ccc(Nc3ccc(F)cc3F)cc2CCc2ccc(OC[C@H](O)CO)cc21	21
CN1CCN(C(=O)C(C)(C)c2ccc(C(=O)Nc3cn4cc(-c5ccncc5)ccc4n3)cc2)CC1	-7.3
CC(C)(O)c1cncc(-c2nc3ccc(F)cc3n2C2CC2)c1	21
Cc1nccc(COC(=O)N2C[C@@H]3[C@@H](CNC(=O)c4ccc5[nH]nnc5c4)[C@@H]3C2)n1	16.4
Cc1nc(Cc2cccc(C(F)(F)F)c2)sc1-c1ccc(C(N)=O)nc1	13.8
CNC(=O)c1ccc(Nc2ncc(C(F)(F)F)c(NCc3nccnc3N(C)S(C)(=O)=O)n2)cc1	-7.46
O=C([C@H]1C[C@H](O)CN1c1ccc(Cl)cc1)N1CC2COCC(C1)N2Cc1ccc(Cl)cc1	6.84
CC1=C(C#N)[C@@H](c2ccc3[nH]nc(C)c3c2)C(C#N)=C(c2ccc(Cl)cc2)N1	58.1
CNC(=O)Nc1ccc2c(c1)[C@]1(CC2)OC(=O)N(CC(=O)N(Cc2ccc(F)cc2)[C@@H](C)C(F)(F)F)C1=O	20.5
COc1cccc(CNC(=O)c2nc3scc(COCc4ccc(C(=O)O)cc4)c3c(=O)[nH]2)c1	11.9
CN([C@@H]1CCc2c(CC(=O)O)c3cc(S(C)(=O)=O)ccc3n2C1)S(=O)(=O)c1ccc(F)cc1	-6.04
COc1cc(-c2cn(C3CCc4ccccc4N(CC(F)(F)F)C3=O)nn2)ccc1-n1ccc(C)n1 (stereo not shown)	20.1
O=C(O)c1cc(-c2ccc(C3CCNCC3)cc2)c2ccc(-c3ccc(C(F)(F)F)cc3)cc2c1	73.7

Block 2
Host: human
Sample: microsomes or S9
Tested at: 2 µM
Time: 0.5 h
Compound	remaining compound [%]
Cn1ccn2ncc(C(=O)N[C@H]3COC[C@@H]3N3CCCCC3)c12	> 99.9
COc1cc(C(=O)Nc2c(C)cc(Cl)cc2C(=O)NC(C)C)n(-c2ncccc2Cl)n1	82.6
CC(C)(C)c1cc(-n2c(=O)[nH]c3ccccc3c2=O)no1	95.5

Block 3
Target: DNA polymerase theta, ATPase domain (POLQ, Homo sapiens, UniProt O75417)
Sequence of UniProt O75417 (whole entry, unmodified, looked up): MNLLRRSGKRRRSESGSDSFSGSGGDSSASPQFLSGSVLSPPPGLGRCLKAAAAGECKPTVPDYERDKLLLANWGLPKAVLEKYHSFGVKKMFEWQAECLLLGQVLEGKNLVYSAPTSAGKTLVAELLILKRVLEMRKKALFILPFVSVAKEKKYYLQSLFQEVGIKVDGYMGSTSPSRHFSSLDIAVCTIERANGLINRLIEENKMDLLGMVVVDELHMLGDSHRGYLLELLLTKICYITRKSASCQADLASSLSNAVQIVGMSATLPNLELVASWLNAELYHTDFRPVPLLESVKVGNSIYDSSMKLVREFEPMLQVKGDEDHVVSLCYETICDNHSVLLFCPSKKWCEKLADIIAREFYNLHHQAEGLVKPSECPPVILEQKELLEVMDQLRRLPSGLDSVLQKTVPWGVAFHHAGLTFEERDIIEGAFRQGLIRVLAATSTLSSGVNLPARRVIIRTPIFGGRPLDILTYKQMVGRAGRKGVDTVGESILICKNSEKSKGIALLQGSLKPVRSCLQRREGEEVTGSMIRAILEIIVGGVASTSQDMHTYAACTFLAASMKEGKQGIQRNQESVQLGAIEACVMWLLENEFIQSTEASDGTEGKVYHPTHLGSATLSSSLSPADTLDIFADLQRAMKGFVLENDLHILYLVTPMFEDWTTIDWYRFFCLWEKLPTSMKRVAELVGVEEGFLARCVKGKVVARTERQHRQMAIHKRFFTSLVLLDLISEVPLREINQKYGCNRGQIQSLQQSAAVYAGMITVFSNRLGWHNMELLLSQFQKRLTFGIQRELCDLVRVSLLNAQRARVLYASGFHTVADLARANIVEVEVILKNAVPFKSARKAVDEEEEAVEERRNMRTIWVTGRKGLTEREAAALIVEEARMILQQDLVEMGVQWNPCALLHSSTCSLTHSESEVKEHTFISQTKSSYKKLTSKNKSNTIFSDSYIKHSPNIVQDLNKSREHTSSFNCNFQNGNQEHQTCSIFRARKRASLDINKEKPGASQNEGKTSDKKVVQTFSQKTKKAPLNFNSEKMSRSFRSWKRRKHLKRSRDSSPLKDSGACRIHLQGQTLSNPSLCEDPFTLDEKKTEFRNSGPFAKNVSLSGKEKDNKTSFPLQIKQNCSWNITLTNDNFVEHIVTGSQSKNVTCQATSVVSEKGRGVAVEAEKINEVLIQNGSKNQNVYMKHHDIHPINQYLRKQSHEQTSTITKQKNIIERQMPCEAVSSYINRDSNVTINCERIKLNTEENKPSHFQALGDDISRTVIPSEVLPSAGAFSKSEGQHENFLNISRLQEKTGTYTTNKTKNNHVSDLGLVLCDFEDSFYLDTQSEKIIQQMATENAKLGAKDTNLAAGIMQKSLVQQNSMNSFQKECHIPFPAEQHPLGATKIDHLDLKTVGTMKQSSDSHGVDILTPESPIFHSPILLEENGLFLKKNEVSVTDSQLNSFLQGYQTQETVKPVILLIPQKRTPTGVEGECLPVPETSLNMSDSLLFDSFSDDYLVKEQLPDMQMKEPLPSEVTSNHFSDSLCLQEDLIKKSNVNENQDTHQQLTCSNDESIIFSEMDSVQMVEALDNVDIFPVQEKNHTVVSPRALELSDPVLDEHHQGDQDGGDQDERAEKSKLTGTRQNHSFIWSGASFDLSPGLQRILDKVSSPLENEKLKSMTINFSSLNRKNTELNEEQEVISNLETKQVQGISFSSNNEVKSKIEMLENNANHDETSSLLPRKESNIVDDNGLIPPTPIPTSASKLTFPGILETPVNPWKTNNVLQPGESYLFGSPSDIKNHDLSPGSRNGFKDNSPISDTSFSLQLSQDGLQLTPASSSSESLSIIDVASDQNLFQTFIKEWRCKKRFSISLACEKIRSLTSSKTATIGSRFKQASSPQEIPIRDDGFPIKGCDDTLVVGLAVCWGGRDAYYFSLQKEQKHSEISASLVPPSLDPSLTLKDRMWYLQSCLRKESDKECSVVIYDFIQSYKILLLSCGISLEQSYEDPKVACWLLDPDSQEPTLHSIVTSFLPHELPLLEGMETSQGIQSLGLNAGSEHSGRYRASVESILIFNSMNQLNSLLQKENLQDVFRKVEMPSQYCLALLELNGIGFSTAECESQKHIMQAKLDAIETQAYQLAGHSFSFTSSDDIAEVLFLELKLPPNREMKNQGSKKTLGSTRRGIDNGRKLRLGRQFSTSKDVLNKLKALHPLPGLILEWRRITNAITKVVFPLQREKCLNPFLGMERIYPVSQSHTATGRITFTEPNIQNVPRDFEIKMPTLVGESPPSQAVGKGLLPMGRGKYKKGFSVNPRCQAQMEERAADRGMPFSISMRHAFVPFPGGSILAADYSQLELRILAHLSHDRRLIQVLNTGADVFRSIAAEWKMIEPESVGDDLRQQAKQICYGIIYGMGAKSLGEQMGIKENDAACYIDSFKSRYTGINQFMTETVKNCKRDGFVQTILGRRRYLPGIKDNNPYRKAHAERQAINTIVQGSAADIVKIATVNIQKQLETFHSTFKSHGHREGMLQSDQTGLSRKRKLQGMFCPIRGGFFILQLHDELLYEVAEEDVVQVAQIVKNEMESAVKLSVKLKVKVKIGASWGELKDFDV
Read-out: enzyme activity
Action: inhibitor
Tested at: 77 µM
Baseline: untreated
SMILES	remaining activity [%]
C[C@H]1CCC/C=C/[C@@H]2C[C@H](O)C[C@H]2[C@H](O)/C=C/C(=O)O1	98.3
NNC(N)=O	99.5
C[C@]12CC[C@H]3[C@@H](CC[C@@]45O[C@@H]4C(O)=C(C#N)C[C@]35C)[C@@H]1CC[C@@H]2O	90.8
CNC[C@@H](O)c1ccc(O)cc1 (racemic)	100

Block 4
Target: Calcium/calmodulin-dependent protein kinase type II subunit alpha (CAMK2A, Homo sapiens, UniProt Q9UQM7)
Sequence of UniProt Q9UQM7 (whole entry, looked up): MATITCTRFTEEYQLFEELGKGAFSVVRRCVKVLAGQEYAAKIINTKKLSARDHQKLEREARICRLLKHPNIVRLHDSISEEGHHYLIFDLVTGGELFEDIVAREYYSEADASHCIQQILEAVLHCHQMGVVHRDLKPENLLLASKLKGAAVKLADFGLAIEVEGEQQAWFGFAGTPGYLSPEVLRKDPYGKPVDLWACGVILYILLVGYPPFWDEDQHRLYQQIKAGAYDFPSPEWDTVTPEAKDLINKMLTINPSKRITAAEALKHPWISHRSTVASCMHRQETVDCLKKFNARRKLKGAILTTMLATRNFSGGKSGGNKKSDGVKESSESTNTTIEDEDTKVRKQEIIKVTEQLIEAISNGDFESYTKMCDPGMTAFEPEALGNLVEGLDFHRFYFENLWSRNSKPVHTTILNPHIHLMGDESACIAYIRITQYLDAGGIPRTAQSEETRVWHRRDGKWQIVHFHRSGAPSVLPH
Read-out: enzyme activity
Action: inhibitor
Tested at: 10 µM
SMILES	inhibition [%]
O=c1ccc2c(O)c3ccoc3cc2o1	20
O=c1[nH]c2ccccc2n1C1CCN(CCCC(c2ccc(F)cc2)c2ccc(F)cc2)CC1	13
C=C1[C@H](OC(=O)c2ccccc2)C[C@H]2[C@@H](/C=C(\C)C(=O)[C@@]3(OC(C)=O)C[C@H](C)[C@H](OC(=O)c4ccccc4)[C@@H]3[C@H]1OC(C)=O)C2(C)C	11
C=C[C@@]12CN(C)[C@H]3C[C@]14C(=Nc1ccccc14)[C@@H]1C[C@@H]2[C@@H]3CO1	-3
COC(=O)[C@@]12OC[C@]34[C@H]([C@@H](O)[C@@H]1O)[C@@]1(C)CC(=O)C(O)=C(C)[C@@H]1C[C@H]3OC(=O)[C@H](OC(=O)/C=C(\C)C(C)C)[C@@H]24	15
O=C(O)CC[N+](=O)[O-]	-43

Block 5
Organism: Sarcocystis neurona
Read-out: parasite activity
Tested at: 10 µM
Time: 96 h
Compound	activity class
CC(NC(C)(C)C)C(=O)c1cccc(Cl)c1 (stereo not shown)	inactive
O=C1CN=C(c2ccccc2)c2cc([N+](=O)[O-])ccc2N1	inactive
CC(C)N(CCC(C(N)=O)(c1ccccc1)c1ccccn1)C(C)C (stereo not shown)	inactive
C[C@]12CCC(=O)C=C1CC[C@@H]1[C@@H]2CC[C@@]2(C)[C@H]1CC[C@]2(C)O	inactive
CCN(C(C)=O)c1cccc(-c2ccnc3c(C#N)cnn23)c1	inactive

Block 6
Cell line: mouse MPNST tumor cells
Technique: high-content nuclear imaging
Item: cell number
Tested at: 10 µM
Time: 12 h
Setting: mean of 2 replicates
Baseline: plate mean
Reading: higher = more cells
SMILES	nuclei count
Cc1cccc(NC(=O)N[C@@H]2N=C(c3ccccc3)c3ccccc3N(CC(=O)c3ccccc3C)C2=O)c1	2.05 z-score
C[C@]12CC[C@H](O)C[C@H]1CC[C@@H]1[C@@H]2CC[C@]2(C)[C@@H](C3=CC(=O)OC3)CC[C@]12O	0.0285 z-score
CN1CCC2(C)c3cc(O)ccc3N(C)C12 (single isomer, unassigned; (-))	-0.684 z-score
S=C(NC1CCCCC1)N1CCC(c2cnc[nH]2)CC1	1.46 z-score and 1.34 z-score

Other studies, line by line
SMILES	cell line	technique	tested at	time	viability
C[C@]12CC[C@H]3[C@@H](CC[C@@]45O[C@@H]4C(O)=C(C#N)C[C@]35C)[C@@H]1CC[C@@H]2O	HaCaT	–	100 µM	60 h	31.5%
CC(C)(C)c1cnc(CSc2cnc(NC(=O)C3CCN(CCCCCSc4cccc5c4CN(C4CCC(=O)NC4=O)C5=O)CC3)s2)o1 (stereo not shown)	HEK293T	trypan blue exclusion	500 nM	24 h	90.1% and 92.2% and 94.8%

A few entries again (block 5):
Compound	activity class
CC(NC(C)(C)C)C(=O)c1cccc(Cl)c1 (stereo not shown)	inactive
O=C1CN=C(c2ccccc2)c2cc([N+](=O)[O-])ccc2N1	inactive
CC(C)N(CCC(C(N)=O)(c1ccccc1)c1ccccn1)C(C)C (stereo not shown)	inactive
C[C@]12CCC(=O)C=C1CC[C@@H]1[C@@H]2CC[C@@]2(C)[C@H]1CC[C@]2(C)O	inactive
CCN(C(C)=O)c1cccc(-c2ccnc3c(C#N)cnn23)c1	inactive
